Measured values gathered from unrelated publications.
Compare with care: the assays were run in different laboratories. Several values in a cell are separate wells, animals, samples, runs or records. ± marks the error that the study gave.

With `NS(=O)(=O)c1ccc(NN=C2C(=O)Nc3ccc4[nH]nnc4c32)cc1` the logP was -0.62 (octanol/buffer, 40 mM buffer; pH 11).
The dose-normalised AUC(0-last) of `NC1(C(=O)N[C@@H](CCO)c2ccc(Cl)cc2)CCN(c2nc[nH]c3nccc2-3)CC1` is reported as 1690 ng·h/mL and 1460 ng·h/mL and 2760 ng·h/mL and 2080 ng·h/mL and 3740 ng·h/mL (human, plasma; oral, 400 mg twice daily, added: enzalutamide 160 mg daily).
For `Cc1cc2sc(N)nc2c2cccnc12`, the Tlast was 24 h (female BALB/c mice, plasma; i.p., 30 mg/kg).
For `CCO[C@H]1CCN(Cc2c(OC)cc(C)c3[nH]ccc23)[C@H](c2ccc(C(=O)O)cc2)C1`, “unbound Cmax (mean)” read 746 ng/mL (healthy human controls, plasma; oral, 200 mg single dose, hepatic impairment phase I study).
`CNC(=O)c1ccc(-c2cnc3ncc(Cc4ccc5ncccc5c4)n3n2)cc1F` — result for “patients with adverse event”: 0% (refers to: Dyspepsia, all grades; hepatocellular carcinoma patients; oral, 600 mg twice daily, expansion cohort, any causality).
For `CC(=O)c1ccc([C@H]2C[C@@]3(C)[C@@H](CC[C@@]3(O)C(F)(F)C(F)(F)F)[C@@H]3CCC4=CC(=O)CCC4=C32)cc1`, the serum concentration was 5.6 ng/mL (human, pooled serum; oral, 200 mg, day 1, 24 h).
Under “decreased appetite incidence”, `CNCc1ccc(-c2[nH]c3cc(F)cc4c3c2CCNC4=O)cc1` is recorded as 37.5% (patients; oral, 360 mg twice daily, all grades).
`Nc1ccn([C@@H]2O[C@H](CO)[C@@H](O)C2(F)F)c(=O)n1` — result for dose-normalised AUC(0-6h): “decreased” (human, plasma; dose not given, cycle 1 day 1).
`CC(C)n1c(Nc2cccnc2)nc2cnc(Nc3ccc(N4CCN(C)CC4)cc3)nc21` — result for “subjects with adverse event”: 28.6% (refers to: oral ulcers; healthy male subjects; oral, 100 mg, study, added: itraconazole).
The logP of `N=C(N)c1ccc2cc(NS(=O)(=O)c3ccccc3)ccc2c1` is reported as -0.29 (octanol/buffer; pH 11, urokinase ligand set).
Under “zero-order absorption duration”, `NC(=O)c1cnc2[nH]ccc2c1N[C@@H]1[C@@H]2CC3C[C@H]1C[C@@](O)(C3)C2` is recorded as 1.3 h (healthy human volunteers, plasma; oral, population PK model estimate).
For `O=C1CCc2ccc(OCCCCN3CCN(c4cccc(Cl)c4Cl)CC3)cc2N1`, “gastrointestinal symptom frequency” read 5.3% (CYP2D6 poor metabolizers; concentration not given, genotype-based phenotype, long-acting oral or depot).
`CC[C@H](C)[C@H](NC(=O)[C@H](Cc1ccccc1)NC(=O)[C@H](CCC(=O)O)NC(=O)[C@H](CCCCNC(=O)COCCOCCNC(=O)COCCOCCNC(=O)CC[C@H](NC(=O)CCCCCCCCCCCCCCCCC(=O)O)C(=O)O)NC(=O)[C@H](C)NC(=O)[C@H](C)NC(=O)[C@H](CCC(N)=O)NC(=O)CNC(=O)[C@H](CCC(=O)O)NC(=O)[C@H](CC(C)C)NC(=O)[C@H](Cc1ccc(O)cc1)NC(=O)[C@H](CO)NC(=O)[C@H](CO)NC(=O)[C@@H](NC(=O)[C@H](CC(=O)O)NC(=O)[C@H](CO)NC(=O)[C@@H](NC(=O)[C@H](Cc1ccccc1)NC(=O)[C@@H](NC(=O)CNC(=O)[C@H](CCC(=O)O)NC(=O)C(C)(C)NC(=O)[C@@H](N)Cc1cnc[nH]1)[C@@H](C)O)[C@@H](C)O)C(C)C)C(=O)N[C@@H](C)C(=O)N[C@@H](Cc1c[nH]c2ccccc12)C(=O)N[C@@H](CC(C)C)C(=O)N[C@H](C(=O)N[C@@H](CCCNC(=N)N)C(=O)NCC(=O)N[C@@H](CCCNC(=N)N)C(=O)NCC(=O)O)C(C)C` gave a dose-normalised Cmax of 24 nmol/L/mg (LC-MS/MS; Chinese patients with type 2 diabetes, plasma; subcutaneous, single dose 0.114 mg, least-squares mean).
`CO[C@H]1/C=C/O[C@@]2(C)Oc3c(C)c(O)c4c(O)c(c(/C=N/N5CCN(C)CC5)c(O)c4c3C2=O)NC(=O)/C(C)=C\C=C\[C@H](C)[C@H](O)[C@@H](C)[C@@H](O)[C@@H](C)[C@H](OC(C)=O)[C@@H]1C`: “adverse event incidence” 0% (refers to: ventricular extrasystoles; healthy human participants; oral, 600 mg, added: gepotidacin 1500 mg).
`Cn1cc(-c2ccc(-c3cncc(Cl)c3N3CCC4(CCNC4=O)CC3)cc2)cn1`: “log2 fold change” 1.65 (COLO 205; gene expression, microarray, refers to: ATF3 mRNA; concentration not given, 2 h; baseline: untreated cells).
Under “accumulation ratio (AUC)”, `C[C@H](Oc1ccc(Br)cc1-c1ccon1)C(=O)O` is recorded as 0.887 (human, plasma; 600 mg once daily, day 10; baseline: day 1).
With `Cc1c(-c2ccc(N3CCc4cccc(C(=O)Nc5nc6ccccc6s5)c4C3)nc2C(=O)O)cnn1CC12CC3(C)CC(C)(C1)CC(OCCNCC[C@H](O)CO)(C3)C2` the plasma concentration was less than 4 ng/mL (anaesthetized male beagle dog; iv infusion, 0.1 mg/kg/min, 75 min).
For `Cc1cc(NC(=O)c2cccc(NC(=O)/C=C/CN(C)C)c2)ccc1Nc1nccc(-c2cccnc2)n1`, the compound remaining was 81.6% (metabolic stability; Wistar rat, male, primary hepatocytes; 1 µM, 30 min).
`CCCCCCCCCCCOC(=O)CCCCCN(CCO)CCCCCCCC(=O)OC(CCCCCCCC)CCCCCCCC` has a zeta potential of -0.31 mV (pH 7.5, formulated).
`Cn1ncnc1[C@H]1c2n[nH]c(=O)c3cc(F)cc(c23)N[C@@H]1c1ccc(F)cc1` has an accumulation half-life of 54.4 h (human patients, plasma; oral, 400 µg/m2, dose level DL2, median, added: temozolomide 20 mg/m2 daily days 2-6).
`CCN1/C(=C/C(C)=O)Sc2ccc(F)cc21` — result for “mean blood pressure change”: 98.6 ± 3.2% (cynomolgus monkey; oral, 30 mg/kg, 24 h post-dose; baseline: pre-dose).
With `CCc1c(-c2ccccc2)c(-c2ccccc2)nn1-c1ccccc1-c1cccc(OCC(=O)O)c1` the concentration was 255 ng/mL and 169 ng/mL (Sprague-Dawley rat, fat homogenate; oral, 10 mg/kg, 4 h).
`Cc1cc(NC2CCN(C(=O)OC3CCN(C(=O)/C=C/CN(C)C)C3)CC2)n2ncc(C(C)C)c2n1` (stereo not shown): “patients with adverse event” 0% (Phase I dose escalation CTCAE v4.0, refers to: dermatitis acneiform; patients with advanced solid tumours; dose not given, TIW dosing grade 3 or higher).
For `O=C(Nc1nc2cccc(-c3ccc(CN4CCS(=O)(=O)CC4)cc3)n2n1)C1CC1`, “treatment-emergent adverse events” read 0% (refers to: non-cardiac chest pain; human rheumatoid arthritis patients; oral, 200 mg once daily, 4 weeks, regardless of relatedness).
`COc1ccc(C(=O)O)cc1OS(=O)(=O)O` has a CSF concentration of 18.8 nM (human, cerebrospinal fluid; concentration not given, mean).
`C[C@@H](Oc1ccc(S(C)(=O)=O)cc1C(=O)N1C[C@@H]2C[C@]2(c2cc(C(F)(F)F)on2)C1)C(F)(F)F` gave an AUC(0-72 h) of 11 µM·h (elderly humans, plasma; oral, 50 mg single dose, geometric mean).
With `CC1(CNC(=O)c2ccc(-c3ccccc3)cc2)NC(=O)NC1=O` (stereo not shown) the logP was 0.55 (octanol/buffer; pH 11).
Under “hypoglycaemia-related adverse event”, `OC[C@H]1O[C@@H](c2ccc(F)c(Cc3cc4ccccc4s3)c2)[C@H](O)[C@@H](O)[C@@H]1O` is recorded as 3% (Japanese patients, type 1 diabetes; oral, 50 mg/day, onset day 5; baseline: patients).
`Nc1ccn([C@@H]2CS[C@H](CO)O2)c(=O)n1` gave a drug concentration of 26700 ± 4900 ng/g (Tat+ transgenic mouse, striatum; subcutaneous osmotic pump, dose not given, 5 d).
`CCc1cc(C(=O)NC)c2nccc(N3CCc4c(cc(Cn5ccnc5)cc4-c4cn(C)nc4C(F)(F)F)C3=O)c2c1` — result for “change in ALB”: 0.4% (Sprague Dawley rat; oral, 100 mg/kg once daily, 7 days; baseline: vehicle).
For `CC[C@@H]1CN(C(=O)NCC(F)(F)F)C[C@@H]1c1cnc2cnc3[nH]ccc3n12`, “zero-order input duration” read 3.29 h (population PK modelling; human; oral, extended-release formulation, outliers re-estimated).
The logP of `COc1ccc2[nH]cc(CCNC(=O)Nc3ccc(Cl)c(Cl)c3)c2c1` is reported as 5.33 (octanol/buffer; pH 11, known kinase inactives set).
`Oc1ccc(/C=C/c2cc(O)cc(O)c2)cc1` has a cholinesterase of 7 IU/L and 6 IU/L (rat, azoxymethane-injected, blood at sacrifice; 10 mg/kg).
With `C=CC(=O)Nc1cc(Nc2nccc(-c3cn(C)c4ccccc34)n2)c(OC)cc1N(C)CCN(C)C` the recovery was 99.2% (storage stability; human plasma; 5 h, -80 °C, medium QC level).
Under “Irwin test score”, `O=C1NCCc2nc(OCc3cccc(F)c3)ccc21` is recorded as 0.4 (refers to: loss of Escape; Sprague-Dawley rat male; oral, 100 mg/kg, 0 min; baseline: baseline, direction not given).
`CS(=O)(=O)N(CC(=O)Nc1ccccc1C(=O)N1CCOCC1)c1ccc(Cl)cc1` has a logP of 1.77 (octanol/buffer; pH 11, known kinase inactives set).
`Cc1cc(C)c(CNC(=O)c2cc(Cl)c3c(c2C)O[C@@](C)([C@H]2CC[C@H](N(C)C)CC2)O3)c(=O)[nH]1` — result for “patients with grade ≥3 TEAE”: 4.2% (CTCAE v4.0, refers to: rash maculo-papular; human relapsed/refractory NHL; oral, 200 mg once daily, onset after cycle 1 day 1, overall treatment period).
The logP of `COC/C=C/c1cc(C2CC2c2ccc3c(c2)C(C(C)C)N(C)CC3)cc2ccc(C(=N)N)cc12` (stereo not shown) is reported as greater than 4.5 (octanol/buffer; pH 11, urokinase ligand set).
`CN(C(=O)n1cnc(-c2cccnc2)c1)C1CCCCC1` gave a concentration of 8.7 ± 0.2 ng/g (Wistar rat, midbrain; oral, 10 mg/kg/day of BIA 10-2474, 48 h, repeated 5 days).
For `N[C@@H]1c2cccnc2[C@H](OC(=O)N2CCC(n3c(=O)[nH]c4ncccc43)CC2)CC[C@H]1c1cccc(F)c1F`, “decrease in CL/F” read 42.7% (human; oral, dose not given, added: fluconazole).
`C=CCN1CC(=O)N2[C@@H](Cc3ccc(O)cc3F)C(=O)N(Cc3cccc(N4CC(N5CCN(CC)CC5)C4)n3)C[C@@H]2N1C(=O)NCc1ccccc1` gave a treatment-related vomiting of 0% (advanced solid tumour patients; oral, 15 mg twice daily, grade ≥3, dose-escalation).
With `CN(CC#N)C(=O)C[C@H](Nc1nc2ccccc2[nH]1)c1cccc(C(F)(F)F)c1` the apparent clearance was 10.9 ± 3.99 L/h (human; intravenous infusion, 2 mg/kg, 10 mg/mL formulation).
`CNC(=O)c1cc(Oc2ccc(NC(=O)Nc3cc(C(C)(C)C)nn3-c3ccc4ncccc4c3)c(F)c2)ccn1` — result for “patients with any AE of special interest”: 33% (refers to: worst grade 1; human; oral, dose not given, cycles 1 and 2, High Cmax subgroup).
`C=CC(=O)NC1CCN(c2ncc3ncnc(Nc4ccc(Oc5ccc6c(c5)ncn6C)c(C)c4)c3n2)CC1` gave a tmax of 1 h (refers to: total radioactivity; healthy male volunteers, whole blood; oral solution, 60 mg, added: [14C]-labelled compound).
With `COc1cccc(OC)c1CNC(=O)c1ccc2c(c1)C(=NNc1ccc(S(N)(=O)=O)cc1)C(=O)N2` the logP was 2.39 (octanol/buffer; pH 11).
`COc1ncc(-c2nc3c(n2C(C)C)[C@H](c2ccc(Cl)cc2)N(c2cc(Cl)cn(C)c2=O)C3=O)c(OC)n1` — result for “AUC(0-t) geometric mean”: 1570 ng·h/mL (human patients, plasma; oral, 15 mg, 0-24 h, low-dose arm, cycle 2 day 1).
